Published values from different studies.
A part holds a random share of what one study measured. Values joined by “and” are separate records of one study, mostly repeats; a detail may differ.

Series 1
Target: Histone acetyltransferase KAT6A, winged helix 1, GST fusion (KAT6A, Homo sapiens, UniProt Q92794, residues 1-85)
Technique: protein binding microarray
Molecule type: double-stranded DNA, one strand shown
Matrix: in vitro
Tested at: not given
Setting: 8-mer, flanks averaged, mean of 2 arrays, mostly near background
Baseline: not given
Reading: higher = stronger binding
Measurement: E-score
Target sequence (chain): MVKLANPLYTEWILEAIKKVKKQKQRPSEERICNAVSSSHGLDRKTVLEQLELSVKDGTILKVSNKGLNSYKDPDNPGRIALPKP
ACCCAGTG: -0.209
ACTAAGCC: 0.0573
AAAAAACC: -0.133
CAGCACCC: 0.07
CCCCCTTA: -0.0987
AGTGCGTA: 0.0624

Series 2
Target: TAR DNA-binding protein 43, full length, His tag (TARDBP, Homo sapiens, UniProt Q13148, residues 1-414)
Technique: RNA Bind-n-Seq
Molecule type: RNA
Matrix: in vitro
Tested at: 20 nM
Setting: 6-mer, flanks averaged, single round
Added: 150 mM LiCl
Baseline: input library
Reading: higher = stronger binding
Measurement: 6-mer enrichment (R)
AGUCGC: 0.885
UUUCCU: 1.03
CCCUUA: 1.11
GUCCUG: 0.948
GACAGC: 0.876
UUAUGA: 1.01

Series 3
Target: Interferon regulatory factor 7, full length, phosphomimetic (IRF7, Homo sapiens, UniProt Q92985, residues 1-503, S471D/S472D/S475D/S476D/S477D/S483D/S484D/S487D)
Chain of UniProt Q92985 (whole entry, unmodified, looked up): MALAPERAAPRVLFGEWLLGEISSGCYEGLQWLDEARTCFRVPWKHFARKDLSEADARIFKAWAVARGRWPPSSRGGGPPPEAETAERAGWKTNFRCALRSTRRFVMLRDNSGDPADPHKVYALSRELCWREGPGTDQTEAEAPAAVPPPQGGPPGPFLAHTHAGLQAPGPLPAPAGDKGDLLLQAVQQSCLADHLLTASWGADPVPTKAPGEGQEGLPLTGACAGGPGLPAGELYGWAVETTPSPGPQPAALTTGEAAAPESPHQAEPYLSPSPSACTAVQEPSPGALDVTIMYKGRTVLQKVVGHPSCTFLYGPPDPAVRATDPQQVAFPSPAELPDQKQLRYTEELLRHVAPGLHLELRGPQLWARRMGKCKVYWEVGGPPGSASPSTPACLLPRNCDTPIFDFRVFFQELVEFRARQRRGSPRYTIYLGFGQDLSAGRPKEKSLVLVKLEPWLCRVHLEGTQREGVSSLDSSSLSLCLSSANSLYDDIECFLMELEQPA
Technique: protein-binding microarray
Molecule type: double-stranded DNA, one strand shown
Matrix: in vitro
Tested at: 2200 nM top
Setting: 60-bp whole probe
Added: salmon DNA 0.4 mg/ml
Baseline: random background probes
Reading: higher = stronger binding
Measurement: fitted relative affinity
Constant ends, left off below: GCCTAGCAC … GTCTTGATTCGCTTGACGCTGCTG
TTAGGTTTCGACACTGGGTGAGTGCTA: 2.16 z-score
TTAGGTCTTGGTTTCGGTTAGTGCTAG: 5.98 z-score
TTACATTTCAGTTTCGATTAGTGCTAG: 8.42 z-score
GACGGACAGGGGACTGGGGACGTGCTA: -0.64 z-score
TTAGGACTGGGGAATGGGTTAGTGCTA: -0.846 z-score
TCATCTATTGCTTTCTCACTGTGCTAG: 1.86 z-score

Mixed results
PhoQ, residues 284 288 289 292 302 303 GLASVI
fold induction (PhoP, residues 12 14 15 18 19 LWHSL (Escherichia coli, UniProt P23836); Sort-seq, refers to: YFP reporter; E. coli; PhoQ-PhoP variant library, added: 10 µM Mg2+; baseline: high Mg2+ state, higher = stronger signaling): 7.55 and 3.75
